Measured values gathered from unrelated publications.
Each numbered part is a random draw from the data of one study; scales do not carry over between parts. Values joined by “and” are separate records of one study, mostly repeats; a detail may differ.
Sequence of UniProt P10721 (whole entry, unmodified, looked up): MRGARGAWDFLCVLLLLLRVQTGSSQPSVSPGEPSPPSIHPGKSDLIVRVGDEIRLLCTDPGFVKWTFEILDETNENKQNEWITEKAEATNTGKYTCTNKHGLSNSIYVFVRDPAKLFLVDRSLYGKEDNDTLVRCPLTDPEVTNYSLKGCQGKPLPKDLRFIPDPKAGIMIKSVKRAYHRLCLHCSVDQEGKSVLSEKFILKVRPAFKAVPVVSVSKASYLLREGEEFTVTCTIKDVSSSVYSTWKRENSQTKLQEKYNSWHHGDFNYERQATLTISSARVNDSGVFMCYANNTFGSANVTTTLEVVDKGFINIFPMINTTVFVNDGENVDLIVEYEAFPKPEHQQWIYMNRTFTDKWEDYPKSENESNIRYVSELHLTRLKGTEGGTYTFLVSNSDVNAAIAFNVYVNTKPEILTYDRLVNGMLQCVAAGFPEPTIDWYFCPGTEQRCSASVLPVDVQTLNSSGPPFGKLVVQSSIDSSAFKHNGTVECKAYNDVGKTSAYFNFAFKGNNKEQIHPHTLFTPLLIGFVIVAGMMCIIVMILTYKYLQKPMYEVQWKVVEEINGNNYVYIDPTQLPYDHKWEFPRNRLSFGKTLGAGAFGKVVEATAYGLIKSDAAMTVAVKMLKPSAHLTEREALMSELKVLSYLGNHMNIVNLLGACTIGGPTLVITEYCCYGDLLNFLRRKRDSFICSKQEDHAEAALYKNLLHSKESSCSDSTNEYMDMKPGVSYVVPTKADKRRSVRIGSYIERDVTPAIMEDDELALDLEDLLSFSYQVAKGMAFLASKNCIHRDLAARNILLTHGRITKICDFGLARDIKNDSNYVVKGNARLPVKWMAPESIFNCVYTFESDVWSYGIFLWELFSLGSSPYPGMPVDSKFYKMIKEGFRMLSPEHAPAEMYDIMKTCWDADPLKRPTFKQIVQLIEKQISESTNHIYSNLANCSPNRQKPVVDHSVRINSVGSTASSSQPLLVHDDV
Sequence of UniProt Q9H3Y6 (whole entry, looked up): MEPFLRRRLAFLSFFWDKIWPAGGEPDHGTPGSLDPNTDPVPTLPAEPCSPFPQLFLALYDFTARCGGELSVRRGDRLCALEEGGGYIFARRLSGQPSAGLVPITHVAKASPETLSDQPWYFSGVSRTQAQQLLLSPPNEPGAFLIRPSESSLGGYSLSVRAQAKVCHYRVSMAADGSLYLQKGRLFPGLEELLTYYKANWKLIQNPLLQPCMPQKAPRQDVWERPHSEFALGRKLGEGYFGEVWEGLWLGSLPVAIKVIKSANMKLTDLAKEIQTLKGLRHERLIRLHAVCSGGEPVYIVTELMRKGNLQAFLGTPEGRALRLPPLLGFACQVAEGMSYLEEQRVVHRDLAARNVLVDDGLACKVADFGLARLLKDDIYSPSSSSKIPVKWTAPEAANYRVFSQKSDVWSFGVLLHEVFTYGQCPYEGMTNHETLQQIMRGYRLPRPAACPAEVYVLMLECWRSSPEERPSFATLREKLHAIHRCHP
Sequence of UniProt P49759 (whole entry, looked up): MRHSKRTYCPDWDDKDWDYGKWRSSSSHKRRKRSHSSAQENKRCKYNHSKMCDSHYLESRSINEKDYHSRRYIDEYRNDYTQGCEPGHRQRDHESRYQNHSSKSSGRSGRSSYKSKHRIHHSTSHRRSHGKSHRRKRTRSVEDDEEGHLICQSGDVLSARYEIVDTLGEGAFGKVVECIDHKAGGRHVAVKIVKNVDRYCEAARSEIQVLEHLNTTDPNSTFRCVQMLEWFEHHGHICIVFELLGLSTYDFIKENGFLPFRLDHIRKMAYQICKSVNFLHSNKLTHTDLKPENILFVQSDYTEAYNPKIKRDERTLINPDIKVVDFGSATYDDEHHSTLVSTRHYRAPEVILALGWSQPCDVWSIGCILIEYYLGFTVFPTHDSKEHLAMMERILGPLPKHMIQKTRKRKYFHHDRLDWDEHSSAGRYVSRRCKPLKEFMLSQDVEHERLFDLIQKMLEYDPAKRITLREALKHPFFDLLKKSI
Sequence of UniProt Q6ZWH5 (whole entry, looked up): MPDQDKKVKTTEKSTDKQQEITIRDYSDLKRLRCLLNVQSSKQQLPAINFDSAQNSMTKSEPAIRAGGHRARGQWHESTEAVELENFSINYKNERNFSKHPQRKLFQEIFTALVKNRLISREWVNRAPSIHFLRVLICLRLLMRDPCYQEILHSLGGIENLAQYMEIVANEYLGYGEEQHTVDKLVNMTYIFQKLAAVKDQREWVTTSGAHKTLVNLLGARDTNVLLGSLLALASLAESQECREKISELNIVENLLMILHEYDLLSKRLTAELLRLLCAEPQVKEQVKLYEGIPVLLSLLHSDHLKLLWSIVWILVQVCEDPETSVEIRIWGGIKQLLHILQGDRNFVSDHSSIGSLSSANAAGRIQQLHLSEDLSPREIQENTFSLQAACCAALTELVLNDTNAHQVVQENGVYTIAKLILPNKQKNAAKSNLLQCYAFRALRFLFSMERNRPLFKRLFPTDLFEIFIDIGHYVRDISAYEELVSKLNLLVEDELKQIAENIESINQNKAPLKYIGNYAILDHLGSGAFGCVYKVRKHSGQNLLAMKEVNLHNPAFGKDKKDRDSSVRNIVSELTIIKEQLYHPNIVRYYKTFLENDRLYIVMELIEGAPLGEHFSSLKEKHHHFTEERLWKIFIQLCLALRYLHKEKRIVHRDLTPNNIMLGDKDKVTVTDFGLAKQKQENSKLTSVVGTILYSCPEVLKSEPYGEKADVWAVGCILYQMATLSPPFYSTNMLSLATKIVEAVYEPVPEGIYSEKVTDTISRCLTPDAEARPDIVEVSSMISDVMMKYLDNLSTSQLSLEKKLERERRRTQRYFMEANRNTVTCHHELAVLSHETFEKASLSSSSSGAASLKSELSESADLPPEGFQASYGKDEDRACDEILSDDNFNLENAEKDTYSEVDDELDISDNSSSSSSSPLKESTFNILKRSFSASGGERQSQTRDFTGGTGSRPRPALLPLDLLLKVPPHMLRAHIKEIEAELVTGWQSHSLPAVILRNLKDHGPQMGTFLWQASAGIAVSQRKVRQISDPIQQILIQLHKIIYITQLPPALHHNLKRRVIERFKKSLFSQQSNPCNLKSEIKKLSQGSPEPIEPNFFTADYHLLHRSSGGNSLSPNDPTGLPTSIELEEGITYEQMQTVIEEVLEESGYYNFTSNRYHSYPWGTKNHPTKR
Sequence of UniProt Q9H2X6 (whole entry, looked up): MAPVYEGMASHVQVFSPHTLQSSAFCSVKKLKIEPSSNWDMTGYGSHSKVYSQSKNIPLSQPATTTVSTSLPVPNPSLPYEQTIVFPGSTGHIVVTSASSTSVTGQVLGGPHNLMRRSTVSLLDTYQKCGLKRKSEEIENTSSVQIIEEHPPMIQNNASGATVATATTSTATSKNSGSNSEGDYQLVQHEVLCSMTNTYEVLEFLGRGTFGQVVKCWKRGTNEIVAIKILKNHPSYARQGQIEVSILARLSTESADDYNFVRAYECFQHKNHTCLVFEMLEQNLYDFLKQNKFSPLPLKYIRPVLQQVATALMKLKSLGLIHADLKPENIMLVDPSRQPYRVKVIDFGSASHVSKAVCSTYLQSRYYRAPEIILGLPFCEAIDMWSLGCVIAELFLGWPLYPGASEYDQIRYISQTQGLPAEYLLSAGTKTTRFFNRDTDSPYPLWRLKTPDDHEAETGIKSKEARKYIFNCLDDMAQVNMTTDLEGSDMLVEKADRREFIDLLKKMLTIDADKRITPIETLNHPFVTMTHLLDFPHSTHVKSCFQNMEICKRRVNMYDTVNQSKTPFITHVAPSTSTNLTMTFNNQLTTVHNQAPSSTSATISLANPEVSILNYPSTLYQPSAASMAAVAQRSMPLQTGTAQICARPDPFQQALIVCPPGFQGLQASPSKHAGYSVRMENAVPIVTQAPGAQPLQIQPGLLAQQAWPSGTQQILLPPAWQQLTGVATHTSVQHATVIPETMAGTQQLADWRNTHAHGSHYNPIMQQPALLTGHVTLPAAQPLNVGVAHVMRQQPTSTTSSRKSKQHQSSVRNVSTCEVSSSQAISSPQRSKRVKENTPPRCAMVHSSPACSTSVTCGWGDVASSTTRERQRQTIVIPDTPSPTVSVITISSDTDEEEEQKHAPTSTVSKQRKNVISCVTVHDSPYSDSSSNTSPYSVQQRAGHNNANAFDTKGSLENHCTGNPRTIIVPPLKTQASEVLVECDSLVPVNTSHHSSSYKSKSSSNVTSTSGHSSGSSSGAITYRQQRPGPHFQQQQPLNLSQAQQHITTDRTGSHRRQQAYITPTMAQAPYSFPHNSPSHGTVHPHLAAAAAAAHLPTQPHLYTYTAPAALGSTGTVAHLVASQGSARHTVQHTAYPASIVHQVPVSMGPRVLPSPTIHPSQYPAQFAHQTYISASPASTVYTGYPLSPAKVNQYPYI
Sequence of UniProt P51812 (whole entry, looked up): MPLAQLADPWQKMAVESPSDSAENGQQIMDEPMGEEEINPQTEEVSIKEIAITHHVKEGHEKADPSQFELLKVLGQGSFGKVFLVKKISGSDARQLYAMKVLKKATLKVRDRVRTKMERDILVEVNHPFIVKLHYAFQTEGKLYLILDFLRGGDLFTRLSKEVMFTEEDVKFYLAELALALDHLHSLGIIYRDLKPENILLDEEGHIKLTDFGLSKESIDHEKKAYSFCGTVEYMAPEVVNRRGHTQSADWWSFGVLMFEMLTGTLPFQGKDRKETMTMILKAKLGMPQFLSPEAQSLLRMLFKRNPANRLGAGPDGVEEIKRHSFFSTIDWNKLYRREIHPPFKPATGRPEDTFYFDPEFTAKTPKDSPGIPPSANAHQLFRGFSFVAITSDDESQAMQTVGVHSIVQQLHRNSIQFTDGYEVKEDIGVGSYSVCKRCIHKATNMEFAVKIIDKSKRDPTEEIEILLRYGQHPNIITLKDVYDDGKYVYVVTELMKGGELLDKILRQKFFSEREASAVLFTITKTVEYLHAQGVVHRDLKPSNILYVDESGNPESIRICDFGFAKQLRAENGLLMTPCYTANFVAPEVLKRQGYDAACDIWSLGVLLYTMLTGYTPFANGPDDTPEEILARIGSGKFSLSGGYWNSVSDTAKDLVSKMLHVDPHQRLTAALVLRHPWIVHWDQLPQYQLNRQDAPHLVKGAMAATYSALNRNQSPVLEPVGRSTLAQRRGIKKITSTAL

Series 1 — cell line: HaCaT; tested at: 100 µM; time: 60 h
SMILES | viability [%]
O=C1CC2(CCCC2)CC(=O)N1CCCCN1CCN(c2ncccn2)CC1 | 117
C[C@]12C=CC(=O)C=C1CC[C@@H]1[C@@H]2C(=O)C[C@@]2(C)[C@H]1CC[C@]2(O)C(=O)CO | 166
CN(C)[C@@H]1C(O)=C(C(N)=O)C(=O)[C@@]2(O)C(O)=C3C(=O)c4c(O)ccc(Cl)c4[C@@H](O)[C@H]3C[C@@H]12 | 96.9
Oc1c(I)cc(Cl)c2cccnc12 | 15
O=C(O)c1cc(/N=N/c2ccc(O)c(C(=O)O)c2)ccc1O | 144

Series 2 — observed: cell-free assay; method: competition with immobilised ligand; tested at: 1 µM
Compound: C[C@@H]1CN(c2cc(-c3nn(C)c4ccc(OC5(C)CC5)cc34)ncn2)C[C@H](C)O1
target | remaining binding [%]
MAP3K14 (Homo sapiens, UniProt Q99558) | 100
CSNK1A1 (Homo sapiens, UniProt P48729) | 100
Ribosomal protein S6 kinase alpha-3, N-terminal kinase domain (RPS6KA3, Homo sapiens, UniProt P51812) | 82
EGFR (Homo sapiens, UniProt P00533, del752-759) | 74
CIT (Homo sapiens, UniProt O14578) | 100
HIPK2 (Homo sapiens, UniProt Q9H2X6) | 74
Tyrosine-protein kinase ABL1, phosphorylated (ABL1, Homo sapiens, UniProt P00519, M351T) | 91
KIT (Homo sapiens, UniProt P10721, A829P) | 60
NEK10 (Homo sapiens, UniProt Q6ZWH5) | 89
FGFR2 (Homo sapiens, UniProt P21802) | 100
Ribosomal protein S6 kinase alpha-2, C-terminal kinase domain (RPS6KA2, Homo sapiens, UniProt Q15349) | 100
PRKG1 (Homo sapiens, UniProt Q13976) | 100
MAP4K5 (Homo sapiens, UniProt Q9Y4K4) | 100
CLK1 (Homo sapiens, UniProt P49759) | 86
TNK1 (Homo sapiens, UniProt Q13470) | 95
KIT (Homo sapiens, UniProt P10721, V559D/V654A) | 100
MAP2K2 (Homo sapiens, UniProt P36507) | 73
BMX (Homo sapiens, UniProt P51813) | 93
SRMS (Homo sapiens, UniProt Q9H3Y6) | 83

Series 3 — cell line: HH; method: CCK-8
Compound: CC(C)(C)c1cnc(CSc2cnc(NC(=O)C3CCN(C(=O)COCCOCCSc4cccc5c4C(=O)N(C4CCC(=O)NC4=O)C5=O)CC3)s2)o1 (stereo not shown)
conditions | viability
50 nM | 94.6% and 95.6%
500 nM | 13.8% and 12.6%
1000 nM | 5.67% and 6.59%
250 nM | 93.7% and 93%

Series 4 — cell line: mouse MPNST tumor cells; method: high-content immunofluorescence imaging; item: nuclear SOX9; tested at: 10 µM; time: 12 h; setting: mean of 2 replicates; baseline: DMSO control; direction: higher = more nuclear SOX9
Structure (SMILES) | nuclear SOX9 intensity
Cc1[nH]c(=O)c(C#N)cc1-c1ccncc1 | 109 % of DMSO and 98.5 % of DMSO
NS(=O)(=O)c1cc2c(cc1Cl)N=C(CSCc1ccccc1)NS2(=O)=O | 91.6 % of DMSO
N=C(N)NCc1cccc(I)c1 | 102 % of DMSO
OCCN(CCO)c1ccc(C(c2ccc(Cl)cc2)c2ccc(N(CCO)CCO)cc2)cc1 | 88.9 % of DMSO
COc1cc2c(NC3CCN(C)CC3)nc(N3CCCN(C)CC3)nc2cc1OCCCN(C)C | 98.6 % of DMSO
CCCCn1c(=O)c2[nH]c(C34CC5CC(CC3C5)C4)nc2n(CCCO)c1=O | 76.6 % of DMSO
Cc1c(NC(=O)c2cccnc2)c(=O)n(-c2ccccc2)n1C | 96.9 % of DMSO

Series 5 — organism: Sarcocystis neurona; observed: parasite growth; tested at: 10 µM; time: 96 h; baseline: untreated
Compound | log2 fold change
O=C(O)COCCN1CCN([C@H](c2ccccc2)c2ccc(Cl)cc2)CC1 | 0.36
COCc1c(C(C)C)nc(C(C)C)c(/C=C/[C@@H](O)C[C@@H](O)CC(=O)O)c1-c1ccc(F)cc1 | -0.52
C[C@@H](c1ncncc1F)[C@](O)(Cn1cncn1)c1ccc(F)cc1F | 0.28
CC(C)(C)NC[C@H](O)COc1nsnc1N1CCOCC1 | 0.39
C[C@@](Cc1ccc(O)c(O)c1)(NN)C(=O)O | 0.26

Some of these lines once more (series 5):
Compound | log2 fold change
O=C(O)COCCN1CCN([C@H](c2ccccc2)c2ccc(Cl)cc2)CC1 | 0.36
COCc1c(C(C)C)nc(C(C)C)c(/C=C/[C@@H](O)C[C@@H](O)CC(=O)O)c1-c1ccc(F)cc1 | -0.52
C[C@@H](c1ncncc1F)[C@](O)(Cn1cncn1)c1ccc(F)cc1F | 0.28
CC(C)(C)NC[C@H](O)COc1nsnc1N1CCOCC1 | 0.39
C[C@@](Cc1ccc(O)c(O)c1)(NN)C(=O)O | 0.26
